Experimental data collected from several papers.
Numbered parts are unrelated; each lists some results of a single study. Positions count from the first letter of the parent shown.

Set 1
Target: RNA binding protein fox-1 homolog 2, RRM domain, GST-SBP tag (RBFOX2, Homo sapiens, UniProt O43251-10, residues 100-194)
Technique: RNA Bind-n-Seq
Form: RNA
Sample: in vitro
Tested at: 365 nM
Notes: natural RNA segment, single round, ends assumed
Relative to: no-protein control
Direction: higher = stronger binding
Construct (chain): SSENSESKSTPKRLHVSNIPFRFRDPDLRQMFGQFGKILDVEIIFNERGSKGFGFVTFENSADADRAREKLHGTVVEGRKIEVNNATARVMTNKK
| Strand | RBNS enrichment (R) |
| --- | --- |
| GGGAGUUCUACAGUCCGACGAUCAAGCUCUGGGGACUGAGCUCCAUGCUCCAACCCCACCCUCUUCUGACCUUUGUUCUCCAGACCUGACCCAGGUAGGCAAGGGUACCCUCCCAGUCUCACCUACCAUACUGUGGAAUUCUCGGGUGCCAA | 0.426 |
| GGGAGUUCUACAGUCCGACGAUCCUGCCUUGCUGGAGGAGAUGGGAUGGGGCGGGAGGUGGCUUCACCAUAACUAUUUUUAAUAUGGGUCAUUCUUAGCAUGAUUUGUAAAGGUCUCAGGCAAACAGUUGUUGUGGAAUUCUCGGGUGCCAA | 4.72 |
| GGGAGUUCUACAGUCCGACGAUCCGUUAAGUGUAAGGUAAAUUAUGUUCUCGAUGCCUCCUAAUCAAACCACUUAGGUUAGAAAGAAACAGGAAUCAUCCUAGGCAGGAAAAUUACUCCACUUUUUUUUAAGUUGGAAUUCUCGGGUGCCAA | 0.329 |
| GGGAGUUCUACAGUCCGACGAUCUCCAGCCUCUGCCUGUUACCCAGUUCCAAAGUCACUUCCACAUUUUGGGUAUUUCUUCAGCAGGUCCCAAUCUACUGGUACCAAUUUACUGUAUUAGUCCGUUUUCACGCUGGAAUUCUCGGGUGCCAA | 0.408 |
| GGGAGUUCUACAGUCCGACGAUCCAUUGUUUUCCUACUUUUUUGUUGUUGGAUUAUGUAACUUUUCCUAAGUUCAGAAGUCUUAAGUGUGCAAGCGUUUAUGUGACCGUGCCAUUCCAGAGUGCAUCAGAACUUGGAAUUCUCGGGUGCCAA | 0.553 |
| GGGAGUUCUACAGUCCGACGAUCACUUAAAUCCUUAAAAGAUUGCUUCGUUUUUAAAAUAACGCAUGUCCAUUUUAGAAAAUUAGAAAAUCAGUCCCACCACCCAAAGAUUAUUGUGCAUGCUGAAAAGAGUAUGGAAUUCUCGGGUGCCAA | 55.4 |
| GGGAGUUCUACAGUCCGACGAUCGAUCUUUUGCUAAUGCAGUUAGCAGUAUGUUUUGCAUGUAUGAAUUAAUAAAUCCUUGAAUCAUACACUGGUUAUGCUUGUGUUUUUGGAAUUUGACAAGCUCUUGGCGUUGGAAUUCUCGGGUGCCAA | 3.32 |
| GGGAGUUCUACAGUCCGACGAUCGUCCUGCCCGACUUCCCAGUUAAAUGCUGCUUGUGCCCAGUGCUGCUUUCCCAAGCUCACCCCACCUCCAUGACUAGAAGCUUCUGCAAAUCUGCUUGGUAAAUGUCUCCUGGAAUUCUCGGGUGCCAA | 0.753 |
| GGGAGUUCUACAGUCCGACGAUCACGUGUAUAGUAUCUGUAUAUAAGUUGCUGUGUGUCUGUCCUGAUUUCUACAACUGGAGUUUUUUUAUACAAUGUUCUUUGUCUCAAAAUAAAGCAAUGUGUUUUUUCGGUGGAAUUCUCGGGUGCCAA | 0.411 |
| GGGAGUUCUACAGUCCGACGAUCAAACAAGGCUAUCUUUGGUCAUAUUCUCUGCUCUGGAAUUUCUGGGCUAGUCUUUCCUGAAUUCUAAUUUUGUUGCUCUGGAAGUGUUAACUGUGAUCCAGUACCUGUAAUGGAAUUCUCGGGUGCCAA | 0.451 |
| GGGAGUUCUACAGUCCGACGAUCCCACAAACCACCAGGACUGAAAGAAGAAAACAGUACAGAAGGCAAAGUUUACAGAUGUUUUUAAUUCUAGUAUUUUAUCUGGAACAACUUGUAGCAGCUAUAUAUUUCCCUGGAAUUCUCGGGUGCCAA | 0.583 |
| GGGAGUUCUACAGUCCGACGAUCAGGGGUGGUGGAGGCAGUGCCCAUGCUGGGCUGAGCCUGCAGUUUUUGUGAGCUCUGGGCUUGUCUCCAUGGGAACAGGGGUGCCUUCUUAGUGAGCUCAUUUCACACAGUGGAAUUCUCGGGUGCCAA | 0.51 |

Set 2
Target: Prothrombin, mature alpha-thrombin (F2, Homo sapiens, UniProt P00734)
Technique: aptamer microarray, sandwich
Form: DNA with 2'F-ANA
Sample: in vitro
Tested at: 200 nM
Notes: whole 15-mer aptamer, many near background
With: Cy3 exosite-II aptamer, 400 nM
Direction: higher = stronger binding
Strand: GGTTGGTGTGGTTGG
| Modification | mean fluorescence intensity [a.u.] |
| --- | --- |
| 2'F-ANA at 2 5 7 8 11 12 | 160 |
| 2'F-ANA at 5 8 10 11 12 14 | 45.3 |
| 2'F-ANA at 5 6 7 11 14 | 46 |
| 2'F-ANA at 1 3 6 7 12 13 | 393 |
| 2'F-ANA at 1 3 5 7 9 | 67.4 |
| 2'F-ANA at 2 5 6 10 | 56.2 |
| 2'F-ANA at 1 2 7 8 10 13 | 53 |
| 2'F-ANA at 6 12 | 784 |
| 2'F-ANA at 1 4 6 7 8 12 14 15 | 67.3 |
| 2'F-ANA at 1 3 5 6 8 9 13 | 52.3 |
| 2'F-ANA at 2 3 4 5 6 7 9 14 15 | 61.3 |
| 2'F-ANA at 1 3 6 10 11 13 14 | 58.9 |
| 2'F-ANA at 1 2 4 5 7 9 12 13 14 15 | 49.1 |
| 2'F-ANA at 2 4 5 8 11 12 14 | 99.6 |
| 2'F-ANA at 2 4 6 7 8 13 15 | 226 |
| 2'F-ANA at 1 2 4 5 6 7 9 10 12 13 14 15 | 62.4 |
| 2'F-ANA at 2 4 6 8 9 10 14 | 57.1 |
| 2'F-ANA at 1 3 5 6 7 9 12 13 | 78.7 |
| 2'F-ANA at 1 3 4 6 7 9 10 11 13 | 88.3 |

Set 3
Target: CCNB3, cyclin fold, Cln2 fusion (human)
Technique: yeast growth competition, sequencing
Sample: yeast
Notes: weak parent motif
Relative to: not given
Direction: higher = stronger binding
Starting sequence: RRM2 docking peptide (human); SKTARRIFQEPTE
| Change | normalised enrichment score |
| --- | --- |
| SKTARRIFQEPAE [T12A] | 0.0125 |
| SKTARRIFQEATE [P11A] | -0.175 |
| SKTAARIFQEPTE [R5A] | 0.0313 |
| SKAARRIFQEPTE [T3A] | -0.299 |
| AKTARRIFQEPTE [S1A] | 0.0914 |
| SKTARAIFQEPTE [R6A] | 0.0997 |

Set 4
Target: Sal-like protein 4, full length isoform A (SALL4, Homo sapiens, UniProt Q9UJQ4, residues 1-1053)
Sequence of UniProt Q9UJQ4 (whole entry, looked up): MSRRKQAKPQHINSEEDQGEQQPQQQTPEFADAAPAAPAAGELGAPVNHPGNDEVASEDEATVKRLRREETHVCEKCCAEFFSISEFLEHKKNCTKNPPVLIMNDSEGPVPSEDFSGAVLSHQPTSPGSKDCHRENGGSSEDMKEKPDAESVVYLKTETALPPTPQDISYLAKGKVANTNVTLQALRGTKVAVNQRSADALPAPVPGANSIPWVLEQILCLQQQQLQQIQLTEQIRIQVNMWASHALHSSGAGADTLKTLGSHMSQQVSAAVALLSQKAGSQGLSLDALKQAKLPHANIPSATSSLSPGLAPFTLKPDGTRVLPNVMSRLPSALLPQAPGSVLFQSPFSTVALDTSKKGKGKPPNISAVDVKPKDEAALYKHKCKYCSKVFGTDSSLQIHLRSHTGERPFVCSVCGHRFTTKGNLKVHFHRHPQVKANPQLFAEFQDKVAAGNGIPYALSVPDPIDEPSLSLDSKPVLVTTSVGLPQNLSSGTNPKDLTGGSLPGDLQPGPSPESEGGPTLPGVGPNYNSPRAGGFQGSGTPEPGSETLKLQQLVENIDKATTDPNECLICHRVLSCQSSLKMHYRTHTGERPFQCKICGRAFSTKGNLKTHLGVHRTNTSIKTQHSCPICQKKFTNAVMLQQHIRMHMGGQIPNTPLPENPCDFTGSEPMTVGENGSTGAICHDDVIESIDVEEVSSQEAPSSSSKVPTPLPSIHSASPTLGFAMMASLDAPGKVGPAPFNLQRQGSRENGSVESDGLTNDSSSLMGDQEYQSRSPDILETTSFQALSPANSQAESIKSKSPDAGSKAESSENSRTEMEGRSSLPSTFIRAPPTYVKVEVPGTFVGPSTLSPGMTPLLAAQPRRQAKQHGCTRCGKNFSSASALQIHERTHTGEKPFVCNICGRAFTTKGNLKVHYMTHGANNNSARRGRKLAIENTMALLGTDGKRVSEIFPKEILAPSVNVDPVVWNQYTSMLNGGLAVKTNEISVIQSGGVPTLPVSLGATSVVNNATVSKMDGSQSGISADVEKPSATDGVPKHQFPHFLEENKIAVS
Technique: universal PBM
Form: double-stranded DNA, one strand shown
Sample: in vitro
Tested at: 600 nM
Notes: 8-mer, flanks averaged, mean of replicates
Direction: higher = stronger binding
| Strand | E-score |
| --- | --- |
| GAATGTAA | 0.267 |
| AAAGCGGA | 0.00601 |
| ATTTCCCC | 0.0576 |
| GGTGTCAC | -0.158 |
| CCAGATAG | -0.0841 |
| AGACAAGC | 0.00274 |
| CAGACAGA | -0.0246 |
| AACGTCCG | -0.282 |
| AAATTGTT | 0.327 |
| GGCCTTGA | -0.186 |
| ACGACCGA | -0.168 |
| AGGTAAGG | -0.0216 |
| CGTAGGTC | -0.164 |
| AGGTAGAA | 0.162 |
| AAATAACG | 0.299 |
| GTTTTTGA | 0.253 |
| CTCGTACA | 0.0327 |
| ATCTCCAC | -0.197 |
| GCACTACC | 0.0299 |
| AGTACTAA | 0.215 |
| ATTGCTAA | 0.29 |
| ATGCTGGG | -0.315 |

Set 5
Target: Ras GTPase-activating protein-binding protein 1, C-terminal RGG region (G3BP1, Homo sapiens, UniProt Q13283)
Sequence of UniProt Q13283 (whole entry, looked up): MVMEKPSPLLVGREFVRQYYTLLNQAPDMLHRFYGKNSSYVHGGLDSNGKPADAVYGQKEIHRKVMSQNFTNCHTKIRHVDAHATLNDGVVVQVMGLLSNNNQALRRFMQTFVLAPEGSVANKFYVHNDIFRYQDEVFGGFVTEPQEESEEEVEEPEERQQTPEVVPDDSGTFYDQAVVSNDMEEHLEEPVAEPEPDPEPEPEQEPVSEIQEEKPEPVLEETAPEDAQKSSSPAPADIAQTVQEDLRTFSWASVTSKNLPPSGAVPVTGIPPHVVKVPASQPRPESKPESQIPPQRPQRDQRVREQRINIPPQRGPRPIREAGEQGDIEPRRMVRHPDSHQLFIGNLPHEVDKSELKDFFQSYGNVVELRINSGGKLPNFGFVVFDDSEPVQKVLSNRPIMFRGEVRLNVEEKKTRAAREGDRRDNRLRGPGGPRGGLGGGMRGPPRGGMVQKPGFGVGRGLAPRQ
Technique: RNA Bind-n-Seq
Form: RNA
Sample: in vitro
Tested at: 1 µM
Notes: whole 134-nt RNA, ends assumed
With: 150 mM KCl
Relative to: input library
Direction: higher = stronger binding
| Strand | log2 enrichment |
| --- | --- |
| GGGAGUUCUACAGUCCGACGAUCUCCUGUGCUACACAUCGUAUGUACCGAAUCGGAAAAAAGGGGAAAAAAGGGAAAAAAGGGAAAGUAUUAUGUUACGCCGUUCGGAUCUGCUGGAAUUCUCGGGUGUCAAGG | -1.13 |
| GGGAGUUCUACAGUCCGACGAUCCACAGACAACACGCACCCACACAGACACAGAGGGAAGGGGUUGGGAUGGGGACAGGGUGCACAGCAGGGCGGGGUAGGACCCCAGGCCCUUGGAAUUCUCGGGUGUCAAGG | -0.946 |
| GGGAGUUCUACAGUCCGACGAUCUCCUCAAGUCCUGUGCUACACAUCGUAUGUACCGAAUCGGUGGUGGGUGGGAAAGUAUUAUGUUACGCCGUUCGGAUCUGCACUUCCAGCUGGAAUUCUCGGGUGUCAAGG | 0.084 |
| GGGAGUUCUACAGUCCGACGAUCAAGUCCUGUGCUACACAUCGUAUGUACCGAAUCGGAAAAAAAGGUGGUUUUUUUGGAAAGUAUUAUGUUACGCCGUUCGGAUCUGCACUUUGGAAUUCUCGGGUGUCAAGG | -2.04 |
| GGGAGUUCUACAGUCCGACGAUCGUCCUGUGCUACACAUCGUAUGUACCGAAUCGGGAAAAAGGGAAAAAGGGGAAAAAGGGAAAGUAUUAUGUUACGCCGUUCGGAUCUGCAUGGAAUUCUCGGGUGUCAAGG | -0.293 |
| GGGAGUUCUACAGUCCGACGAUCUGGCCCUGGUGGCAUGCGGGGAGGAAGAGGUGGCCUCAUGGAUCGUGGUGGUCCCGGUGGAAUGUUCAGAGGUGGGCGUGGUGGAGACAGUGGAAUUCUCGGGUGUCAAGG | 3.21 |
| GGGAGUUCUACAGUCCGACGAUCAAGUCCUGUGCUACACAUCGUAUGUACCGAAUCGGCCCCGGGGCCCCGGGCCCCGGGAAAGUAUUAUGUUACGCCGUUCGGAUCUGCACUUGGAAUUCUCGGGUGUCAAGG | -2.29 |
| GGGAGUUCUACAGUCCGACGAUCUCCUGUGCUACACAUCGUAUGUACCGAAUCGGAAAAAAAGGAAAAAAAGGGAAAAAAAGGAAAGUAUUAUGUUACGCCGUUCGGAUCUGCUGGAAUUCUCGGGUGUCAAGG | -0.912 |
| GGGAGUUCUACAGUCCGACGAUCUUGUGGUAUUUUAUUUACUUAUUUUUUUAAAUCUUCCAUUACAGCCAUGCCUUUCUUGGACAUCCAGAAAAGGUUCGGCCUUAACAUAGAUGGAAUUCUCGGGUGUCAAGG | -1.33 |
| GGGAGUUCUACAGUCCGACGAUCAGUCCUGUGCUACACAUCGUAUGUACCGAAUCGGCCCCCGGCCCCCGGGGCCCCCGGGAAAGUAUUAUGUUACGCCGUUCGGAUCUGCACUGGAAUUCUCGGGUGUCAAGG | -1.64 |
| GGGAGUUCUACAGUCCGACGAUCAGUCCUGUGCUACACAUCGUAUGUACCGAAUCGGGGAAAAGGAAAAGGGGAAAAGGGAAAGUAUUAUGUUACGCCGUUCGGAUCUGCACUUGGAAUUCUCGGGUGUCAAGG | -0.752 |
| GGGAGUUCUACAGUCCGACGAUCCCUGUGCUACACAUCGUAUGUACCGAAUCGGAAAAAAGGGAAAAAAGGGGAAAAAAGGGGAAAGUAUUAUGUUACGCCGUUCGGAUCUGCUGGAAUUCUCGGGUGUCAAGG | -1.63 |
| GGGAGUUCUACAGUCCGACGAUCUCAUGUGGAUGAAGCAGAAAAAGAAGCUCAGAAGAAGCCAGCUGAAUCUCAAAAAAUAGAGCGUGAAGAUGCCCUGGCUUUUAAUUCAGCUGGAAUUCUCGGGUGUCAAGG | -1.81 |
| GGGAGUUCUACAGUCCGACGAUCAGUUCUAUCUCUGGGGUGACUGCCGCAUAUAACCGAGAACAGCUGUGGCUGGCCAAUGAAGGCCUGAUCACCAGGCUGCAGGCUCGCUGCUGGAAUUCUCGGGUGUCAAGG | -0.94 |

A few entries again (set 4):
| Strand | E-score |
| --- | --- |
| CAGACAGA | -0.0246 |
| AACGTCCG | -0.282 |
| AAATTGTT | 0.327 |
| GGCCTTGA | -0.186 |
| ACGACCGA | -0.168 |
| AGGTAAGG | -0.0216 |
| CGTAGGTC | -0.164 |
| AGGTAGAA | 0.162 |
| AAATAACG | 0.299 |
| GTTTTTGA | 0.253 |
| CTCGTACA | 0.0327 |
| ATCTCCAC | -0.197 |
